Measured values collected from several papers.
Parts stem from different laboratories: compare values within a part only. Changes are numbered by the printed parent chain.

Sample 1
Target: Ras GTPase-activating protein-binding protein 1, RRM domain (G3BP1, Homo sapiens, UniProt Q13283)
Chain of UniProt Q13283 (whole entry, looked up): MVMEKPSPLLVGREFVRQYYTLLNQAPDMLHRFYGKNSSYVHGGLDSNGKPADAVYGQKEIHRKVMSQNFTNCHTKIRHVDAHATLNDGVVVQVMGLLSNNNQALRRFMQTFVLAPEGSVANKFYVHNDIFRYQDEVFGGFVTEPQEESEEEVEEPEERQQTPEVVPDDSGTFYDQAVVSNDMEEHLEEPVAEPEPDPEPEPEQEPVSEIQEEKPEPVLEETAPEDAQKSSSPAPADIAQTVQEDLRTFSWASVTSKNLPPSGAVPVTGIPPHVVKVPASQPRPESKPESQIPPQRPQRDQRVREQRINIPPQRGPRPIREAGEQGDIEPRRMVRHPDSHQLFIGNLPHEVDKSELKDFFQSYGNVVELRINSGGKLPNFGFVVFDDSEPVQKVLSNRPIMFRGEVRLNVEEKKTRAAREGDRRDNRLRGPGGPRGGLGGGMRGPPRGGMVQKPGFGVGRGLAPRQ
Method: RNA Bind-n-Seq
Molecule type: RNA
Medium: in vitro
Tested at: 1 µM
Notes: whole 134-nt RNA, ends assumed
Added: 150 mM KCl
Baseline: input library
Direction: higher = stronger binding
Shared flanks, not repeated: GGGAGUUCUACAGUCCGACGAUC … UGGAAUUCUCGGGUGUCAAGG
Oligonucleotide	log2 enrichment
CACAGACAACACGCACCCACACAGACACAGAGGGAAGGGGUUGGGAUGGGGACAGGGUGCACAGCAGGGGGGGGUAGGACCCCAGCCCCU	-0.323
GCAGGAAGUAAAAACAAAUGCAAAUGCUUCGGAUAGUGGCAGGGGUGGGGGUUGCUAAGGAAAGGGUGGGAUGGGAGUGGGUAAAGAGUU	1.29
AAGUCCUGUGCUACACAUCGUAUGUACCGAAUCGGGGAGGGGAAAAAGGGGUGGGGAAAGUAUUAUGUUACGCCGUUCGGAUCUGCACUU	0.985
AAGUCCUGUGCUACACAUCGUAUGUACCGAAUCGGGGCCCGGGCCCGGGGCCCGGGAAAGUAUUAUGUUACGCCGUUCGGAUCUGCACUU	-1
UCCUGUGCUACACAUCGUAUGUACCGAAUCGGAAAAAAGGGGAAAAAAGGGAAAAAAGGGAAAGUAUUAUGUUACGCCGUUCGGAUCUGC	0.0451
AAGUCCUGUGCUACACAUCGUAUGUACCGAAUCGGUUUUUUUGGAGGAAAAAAAGGAAAGUAUUAUGUUACGCCGUUCGGAUCUGCACUU	-0.233
CCCAUGCAGGUGGGCAUCUUUGGGAAGUGGGGCAAGGGGGGGAUAGGGAGGGGGGUAACACUUUGGGAACAGGUGGUCCCAGGUCGUUUC	-0.558
UCAAGUCCUGUGCUACACAUCGUAUGUACCGAAUCGGGGCCGGCCGGGGCCGGGGAAAGUAUUAUGUUACGCCGUUCGGAUCUGCACUUC	-1.27
UCAAGUCCUGUGCUACACAUCGUAUGUACCGAAUCGGGGUUGGGUUGGGGUUGGAAAGUAUUAUGUUACGCCGUUCGGAUCUGCACUUCC	-0.142
CCUCAAGUCCUGUGCUACACAUCGUAUGUACCGAAUCGGAGGAGGUUUUUGGAAAGUAUUAUGUUACGCCGUUCGGAUCUGCACUUCCAG	-0.215
GUCCUGUGCUACACAUCGUAUGUACCGAAUCGGGUUUUUUUGGGAAAAAAAGGGUGGGAAAGUAUUAUGUUACGCCGUUCGGAUCUGCAC	0.0226
UGGGAGGUGGAUGUUGUUUAUUUUUUUAGCUCAUUUCCAGGGGUGGGAAUUUUUUUUUAAUAUGUGUCAUGAAUAAAGUUGUUUUUGAAA	1.45
UGGGAGGUGGAUUUUGUUUAUUUUUUUAGCUCAUUUCCAGGGGUGGGAAUUUUUUUUUAAUAUGUGUGAUGAAUAAAGUUGUUUUUGAAA	1.24
AAGUCCUGUGCUACACAUCGUAUGUACCGAAUCGGGUUUGGGAAAAAAAGGGAGGGAAAGUAUUAUGUUACGCCGUUCGGAUCUGCACUU	0.778

Sample 2
Target: CCNE2, cyclin fold, Cln2 fusion (human)
Method: yeast growth competition, sequencing
Medium: yeast
Notes: weak parent motif
Baseline: not given
Direction: higher = stronger binding
Starting sequence: RB1 docking peptide (human); PKPLKKLRFDIEG; partner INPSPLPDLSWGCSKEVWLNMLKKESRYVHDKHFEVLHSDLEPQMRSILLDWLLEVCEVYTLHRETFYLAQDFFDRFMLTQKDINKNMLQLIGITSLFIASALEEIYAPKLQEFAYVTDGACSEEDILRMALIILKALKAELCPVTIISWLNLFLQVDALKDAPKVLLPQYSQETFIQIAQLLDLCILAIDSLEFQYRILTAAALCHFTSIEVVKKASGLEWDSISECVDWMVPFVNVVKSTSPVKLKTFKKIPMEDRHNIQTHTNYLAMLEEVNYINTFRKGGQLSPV
Change	normalised enrichment score
D10M	1.56
G13P	1.1
G13I	0.276
R8H	0.177
K6Q	-1.12
L4T	0.327
L7N	0.427
F9M	0.94
G13D	0.497
E12D	-0.104
L7M	0.94
K5E	-0.327
E12R	-0.0436
P1T	0.839
G13F	0.531
F9K	0.441
D10V	0.0077
K6C	1.41
K6Y	0.199
G13S	0.916
K2L	0.552
L4N	0.843
K5M	-0.247
P1W	1.39
P1R	0.767

Sample 3
Target: Histone acetyltransferase KAT6A, both winged helices, GST fusion (KAT6A, Homo sapiens, UniProt Q92794, residues 1-181)
Method: protein binding microarray
Molecule type: double-stranded DNA, one strand shown
Medium: in vitro
Tested at: not given
Notes: 8-mer, flanks averaged, mean of 2 arrays, mostly near background
Baseline: not given
Direction: higher = stronger binding
Construct (chain): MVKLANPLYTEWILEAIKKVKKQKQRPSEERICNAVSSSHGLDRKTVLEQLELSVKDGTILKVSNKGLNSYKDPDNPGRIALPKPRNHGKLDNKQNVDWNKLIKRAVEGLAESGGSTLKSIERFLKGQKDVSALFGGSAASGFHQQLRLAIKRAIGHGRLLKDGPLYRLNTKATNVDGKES
Oligonucleotide	E-score
CGTTGAGC	0.121
AGTAGAAA	-0.0745
GGGGCGAC	-0.0053
AATACCGC	0.256
CACACTAC	-0.0235
ACACACGT	-0.0637
GCGTCGCA	0.306
ATCCCACC	0.0248
ATTTAGGG	-0.0353
CCCCGATA	0.0919
AGTTTCGA	-0.0268
GCACGGAC	0.272
AAAAAAGC	0.0403
CCCAGCAC	-0.00827
GGCCTACC	-0.056
CTATCAGC	-0.0462
AAGATTTA	-0.0896
CGCGATTA	0.134
CACTTTCA	-0.0342
CCTTCAAG	-0.134
AAAGTGAT	-0.173
TAAACTGA	-0.0385
AGGTTTAC	-0.119
CTGATCTC	-0.0519
GACCAGTC	-0.0679

Sample 4
Target: RNA binding protein fox-1 homolog 2, RRM domain, GST-SBP tag (RBFOX2, Homo sapiens, UniProt O43251-10, residues 100-194)
Method: RNA Bind-n-Seq
Molecule type: RNA
Medium: in vitro
Tested at: 365 nM
Notes: natural RNA segment, single round, ends assumed
Baseline: no-protein control
Direction: higher = stronger binding
Shared flanks, not repeated: GGGAGUUCUACAGUCCGACGAUC … UGGAAUUCUCGGGUGCCAA
Construct (chain): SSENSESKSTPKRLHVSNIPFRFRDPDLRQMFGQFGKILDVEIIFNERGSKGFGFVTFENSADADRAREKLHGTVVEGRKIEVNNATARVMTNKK
Oligonucleotide	RBNS enrichment (R)
CACAGAAAGGAUGUAGAAGGGUGCCAUCUGUGUGCCUUCUCUGACAUCUCAAGGGACUUGCCCAGGACAUGGAACUGUGGCCUCCUUGACAAACCUAUCUCUUGGACUCA	0.479
UUCACAUUUGUAGAUUAAGCUGGAAUUAUAAUGAGAGCAAUAAGAACAAAUUUAUUUUGCUUACCACAGUGUUAUAGCUGGUUCUAGAAAUUUGAAGUCUUUAUAACUUA	0.309
CCGUCCUAAACACUUCCUAGCUCCCGGGACUGGGGGGUUUGUCUGGCAUAGCCAUGCUGGUAGCAAGAGAGAAAAAAUCAACAGCAAACAAAACCACACAAACCAAACCG	0.502
UCAUGGAUACAAAGCUAGGUUUGUCUCUCAACUCUCAUACUGCCAAAAGUUAAACUAUGAUGCUUAAAUAUGUUUCUCUGCCUUAUUUUAUAAGUGUGUGAUAAUAGAUA	0.655
CUGUGGGCUCUGCGUGGCCGGGCCUUGCUGGAGGCCCAGUGGGUUUUCUGGGCAAAGCAUGGCCCCUUUUCCCCAGGACAAAGGGAACAGUUGGUGUCUGGGAAGGUAUU	0.903
CUCCUUUAUCAGUUAGCUGUUUUAUCAUUAGGAUACAAGACAGCCCAGUGUCAUCAACAGUGAGCAAAUCUGGCAUGGUGUUUGUCUCGUACAGUUGGGAUAGGAGGCCA	7.12
CUGUGGCUACUUCGUGGUCAGAGUGAGCCCCUUGCAGAAUCCCCACUCCAGCAAACAAAGCAACGGCCCUGCUGGGAUUGUCGAAUCUCCCUUGAGGGUUUCAGGGACCU	0.187
AGGAGCGGCCCUCAAGAUCUCUUUGCCGAGUUUGGGAGCCAUGAGCAAGUCCUUGGCUCCAUACUUCCCUCUAAUGUGAAGGGGAGGGGUCUGCCCUUUCCCUCCUUGGG	0.378
GCCACAAAAUAAAACACACACUGAUCAAAGCCGGCUAUACUGGCAUUGCAUAUCUUUGCUAUUCAACAAUGGUGUCCUUCACCACAGUUUCUAAUCUAGAGCACGGAGAA	0.396
UUCACUGUGGUCUUUUCCAGAUAAGUUACUUCUUUUGCAUCUGAAAUGGGAUGUGGCCAUGGCAUUGCUAGAAUAUGGUGUGCUUUUAGAACAAAUGUGGCCUUCUCAUG	1.55
UUGUACUAACUCAGCAUGUAACAACCAAUUUACAUGGAAAUAAAUCGAAAUAUGAUAACUAUUAUGCUUAAAUGGAUUUGCGUCUAUUAUUUCAUAGUAUUUACUCUCCU	0.402
AGGAGGGGGAGUGGAGGGGCAUAGCCUUUCCCUAAUUCUGCCUUAAAUAAAACUGCAUUGCUGAUUCGUGAUGAUUCCUUACUUCGUGCAUAGAGGGGAGGCGGGAGCUG	0.564

Sample 5
Target: Protein max, full length (MAX, Homo sapiens, UniProt P61244-2, residues 1-151)
Method: protein-binding microarray
Molecule type: double-stranded DNA, one strand shown
Medium: in vitro
Tested at: not given
Notes: k-mer, scored over probes, only values ≥0.25
Direction: higher = stronger binding
Oligonucleotide	E-score
AGTCATGC	0.406
GTGAACAC	0.254
CGTGAATA	0.313
CATGTGTC	0.451
ACATGAGT	0.341
AATGTGGT	0.264
ACGCCGTC	0.27
CACCTGGC	0.382
AATGTGTC	0.295
ACCGTGTG	0.295
AATCACGA	0.295
ACACGTGT	0.496
ACACGAGC	0.328
CATGTTGC	0.352
ACACGGTG	0.327
ACGTGTCT	0.436
CATGTCGC	0.305

Sample 6
Target: Phosphate system positive regulatory protein PHO4, full length, GST-tagged (PHO4, Saccharomyces cerevisiae, UniProt P07270, residues 1-312)
Method: competition protein-binding microarray
Molecule type: double-stranded DNA, one strand shown
Medium: in vitro
Tested at: 2 µM
Notes: whole 60-bp probe, lowest competitor level
Added: Cbf1 competitor, 0.05 µM
Direction: higher = stronger binding
Shared flanks, not repeated: … GTCTTGATTCGCTTGACGCTGCTG
Target sequence (chain): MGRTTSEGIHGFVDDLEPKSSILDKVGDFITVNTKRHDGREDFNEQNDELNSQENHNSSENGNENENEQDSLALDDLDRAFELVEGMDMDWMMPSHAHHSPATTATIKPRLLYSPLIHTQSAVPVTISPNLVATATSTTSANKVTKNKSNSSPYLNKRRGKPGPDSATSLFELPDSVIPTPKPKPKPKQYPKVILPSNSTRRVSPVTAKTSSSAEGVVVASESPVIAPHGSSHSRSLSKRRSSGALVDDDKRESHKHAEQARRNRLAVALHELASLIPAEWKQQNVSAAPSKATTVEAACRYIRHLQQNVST
Oligonucleotide	fluorescence intensity [a.u.]
TGCGCAACAACTTGACGCGTGGGTGTATGTCTAGAA	10000
TGGATCTTCCACTGTCATGCTAATTGGTCTTAGGTT	4530
AGTAGAACTCGTCGGCACGTTCAAAGACCAAGAATT	10600
TGCGCAACAACTTGTCAAGTGGGTGTATGTCTAGAA	5000
TCTCTGTTGCAATCTCACGTGAAAAAGTGGATTCGC	9730
TTTTTTCAGATGGAGACTGTGATGGGGTAGCGCTTG	3740
TTGGCGACTATTTAGCACGTGAGTATACTTGATTAA	15900
TTCTGATAAGCCCATCACGTGACGGTGGTTCTAAGA	13100
TTGGCAACTCTCTCCGTCATGACAACTACTCCGCGG	3050
AGATCAAAGTCCCATCACGGGAAGCGGACAACAATA	4590
AAATTACTAAGTTGTCACTCCACTTACCCCGTATGA	3830
GCCAGAAGTTCCTGTCACACTCTGCAAATTATCCCG	4820
TTTGTCCTCGCACTCCGCGTGGTGAACTTGTTCTTG	8740
CGGGGTTAAGTTTGGGCAGTGGGTGGCTTGCAGCAG	4660
CGGGGTTAAGTTTTTCACGTGTCATGCTCGCAGCAG	12500
GGAATTGGTTCACTGATTGAAAGTGATTTTGAGAGG	2820
CCAAGGGATTACCATCACGTAAGACTCTTGATCCTT	3260
AACAGTGGTTCCTGTTCCGTGACGGGTGCTACAACT	3700

Further values, each from its own experiment
Substance	target	test	system	conditions	scale	endpoint	result
PhoQ, residues 284 288 289 292 302 303 SNSSNI	PhoP, residues 12 14 15 18 19 STWGI (Escherichia coli, UniProt P23836)	Sort-seq, measured: YFP reporter	E. coli	PhoQ-PhoP variant library, added: 10 µM Mg2+	baseline: high Mg2+ state, higher = stronger signaling	fold induction	0.442

Some of these lines once more (sample 5):
Oligonucleotide	E-score
AATGTGTC	0.295
AATGTGGT	0.264
CATGTTGC	0.352
ACGCCGTC	0.27
ACACGTGT	0.496
GTGAACAC	0.254
ACACGAGC	0.328
ACACGGTG	0.327
